Measurements gathered from unrelated publications.
Protocols differ between the studies behind these lines. ± gives the spread as reported.
UniProt Q9HAZ1, sequence (whole entry, looked up): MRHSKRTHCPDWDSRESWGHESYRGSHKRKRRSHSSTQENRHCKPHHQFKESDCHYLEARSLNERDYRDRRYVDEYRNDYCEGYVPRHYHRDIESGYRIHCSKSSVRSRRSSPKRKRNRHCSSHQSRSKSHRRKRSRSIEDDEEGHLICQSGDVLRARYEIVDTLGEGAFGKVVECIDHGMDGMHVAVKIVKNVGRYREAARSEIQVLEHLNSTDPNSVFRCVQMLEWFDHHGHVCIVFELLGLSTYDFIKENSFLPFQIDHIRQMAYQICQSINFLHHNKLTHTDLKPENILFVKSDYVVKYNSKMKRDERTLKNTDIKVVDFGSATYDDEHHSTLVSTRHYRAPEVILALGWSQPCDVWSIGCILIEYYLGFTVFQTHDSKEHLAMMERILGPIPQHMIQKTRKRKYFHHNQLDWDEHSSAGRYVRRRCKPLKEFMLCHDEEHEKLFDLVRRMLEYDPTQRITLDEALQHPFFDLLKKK
UniProt P23975, sequence (whole entry, looked up): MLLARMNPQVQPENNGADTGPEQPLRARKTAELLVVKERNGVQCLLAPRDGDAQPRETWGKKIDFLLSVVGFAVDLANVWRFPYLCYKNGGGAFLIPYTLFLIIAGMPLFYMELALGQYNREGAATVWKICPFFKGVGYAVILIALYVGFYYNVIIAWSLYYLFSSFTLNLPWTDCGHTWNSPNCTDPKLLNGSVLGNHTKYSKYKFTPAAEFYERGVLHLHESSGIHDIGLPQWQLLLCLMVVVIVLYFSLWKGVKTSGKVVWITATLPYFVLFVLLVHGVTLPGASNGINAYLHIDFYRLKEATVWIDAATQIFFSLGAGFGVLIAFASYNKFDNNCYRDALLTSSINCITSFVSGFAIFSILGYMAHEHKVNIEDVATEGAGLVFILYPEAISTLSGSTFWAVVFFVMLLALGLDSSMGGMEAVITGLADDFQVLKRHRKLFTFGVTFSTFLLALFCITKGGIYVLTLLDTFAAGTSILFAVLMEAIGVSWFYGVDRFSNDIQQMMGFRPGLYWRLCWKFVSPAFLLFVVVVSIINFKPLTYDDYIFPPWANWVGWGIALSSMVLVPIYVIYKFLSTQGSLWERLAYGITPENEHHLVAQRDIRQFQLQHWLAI
UniProt O00329, sequence (whole entry, looked up): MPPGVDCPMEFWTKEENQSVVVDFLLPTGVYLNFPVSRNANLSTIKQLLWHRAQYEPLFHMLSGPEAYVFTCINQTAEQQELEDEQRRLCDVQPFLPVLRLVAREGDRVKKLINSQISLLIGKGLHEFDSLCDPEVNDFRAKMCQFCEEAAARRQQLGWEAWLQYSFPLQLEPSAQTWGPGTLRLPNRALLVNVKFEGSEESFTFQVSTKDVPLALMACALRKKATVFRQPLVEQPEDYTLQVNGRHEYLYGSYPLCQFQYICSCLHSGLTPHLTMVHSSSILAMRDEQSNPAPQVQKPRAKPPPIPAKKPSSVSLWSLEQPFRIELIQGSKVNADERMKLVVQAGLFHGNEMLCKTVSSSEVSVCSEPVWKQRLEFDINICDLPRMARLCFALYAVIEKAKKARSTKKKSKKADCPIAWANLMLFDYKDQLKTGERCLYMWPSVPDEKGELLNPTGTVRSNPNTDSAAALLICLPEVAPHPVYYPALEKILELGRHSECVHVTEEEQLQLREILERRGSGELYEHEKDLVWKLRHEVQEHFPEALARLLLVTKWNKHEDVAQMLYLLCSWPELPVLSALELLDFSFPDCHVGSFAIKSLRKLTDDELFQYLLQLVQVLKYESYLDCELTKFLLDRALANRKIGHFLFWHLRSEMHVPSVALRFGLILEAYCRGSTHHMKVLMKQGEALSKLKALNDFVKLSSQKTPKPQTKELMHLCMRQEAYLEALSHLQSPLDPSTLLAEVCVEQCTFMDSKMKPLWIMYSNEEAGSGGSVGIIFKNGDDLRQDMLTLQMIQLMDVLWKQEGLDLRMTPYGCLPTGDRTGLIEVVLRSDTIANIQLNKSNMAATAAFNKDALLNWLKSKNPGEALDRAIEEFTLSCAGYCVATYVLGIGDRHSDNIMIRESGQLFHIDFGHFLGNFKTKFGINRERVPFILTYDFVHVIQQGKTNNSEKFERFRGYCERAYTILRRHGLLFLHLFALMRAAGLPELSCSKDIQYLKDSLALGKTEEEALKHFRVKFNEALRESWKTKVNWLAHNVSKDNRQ
UniProt P21554, sequence (whole entry, unmodified, looked up): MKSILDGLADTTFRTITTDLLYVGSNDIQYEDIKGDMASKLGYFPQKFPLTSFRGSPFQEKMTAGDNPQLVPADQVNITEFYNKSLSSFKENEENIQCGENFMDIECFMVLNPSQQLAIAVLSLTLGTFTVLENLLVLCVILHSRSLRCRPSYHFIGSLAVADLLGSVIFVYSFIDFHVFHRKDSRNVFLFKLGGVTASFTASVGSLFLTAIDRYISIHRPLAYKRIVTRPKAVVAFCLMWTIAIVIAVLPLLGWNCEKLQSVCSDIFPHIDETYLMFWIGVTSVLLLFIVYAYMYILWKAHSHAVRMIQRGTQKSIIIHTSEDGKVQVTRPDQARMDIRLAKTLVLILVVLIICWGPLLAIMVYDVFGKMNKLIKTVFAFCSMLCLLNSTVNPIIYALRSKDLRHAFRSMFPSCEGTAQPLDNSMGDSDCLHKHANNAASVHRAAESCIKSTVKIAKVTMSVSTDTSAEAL
UniProt P51956, sequence (whole entry, looked up): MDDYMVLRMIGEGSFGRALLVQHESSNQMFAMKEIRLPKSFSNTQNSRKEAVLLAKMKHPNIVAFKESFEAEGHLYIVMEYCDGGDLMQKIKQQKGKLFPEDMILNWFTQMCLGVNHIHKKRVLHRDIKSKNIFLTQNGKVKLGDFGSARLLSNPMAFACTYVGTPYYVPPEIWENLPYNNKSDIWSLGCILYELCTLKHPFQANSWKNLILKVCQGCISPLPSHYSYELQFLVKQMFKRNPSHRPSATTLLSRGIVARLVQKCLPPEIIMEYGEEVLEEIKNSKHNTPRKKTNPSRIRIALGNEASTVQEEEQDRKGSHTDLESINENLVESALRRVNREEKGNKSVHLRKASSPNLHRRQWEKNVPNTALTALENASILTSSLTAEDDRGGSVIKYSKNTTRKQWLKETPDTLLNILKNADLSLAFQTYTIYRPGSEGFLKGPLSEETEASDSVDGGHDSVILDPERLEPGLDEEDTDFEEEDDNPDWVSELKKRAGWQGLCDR
UniProt Q01959, sequence (whole entry, looked up): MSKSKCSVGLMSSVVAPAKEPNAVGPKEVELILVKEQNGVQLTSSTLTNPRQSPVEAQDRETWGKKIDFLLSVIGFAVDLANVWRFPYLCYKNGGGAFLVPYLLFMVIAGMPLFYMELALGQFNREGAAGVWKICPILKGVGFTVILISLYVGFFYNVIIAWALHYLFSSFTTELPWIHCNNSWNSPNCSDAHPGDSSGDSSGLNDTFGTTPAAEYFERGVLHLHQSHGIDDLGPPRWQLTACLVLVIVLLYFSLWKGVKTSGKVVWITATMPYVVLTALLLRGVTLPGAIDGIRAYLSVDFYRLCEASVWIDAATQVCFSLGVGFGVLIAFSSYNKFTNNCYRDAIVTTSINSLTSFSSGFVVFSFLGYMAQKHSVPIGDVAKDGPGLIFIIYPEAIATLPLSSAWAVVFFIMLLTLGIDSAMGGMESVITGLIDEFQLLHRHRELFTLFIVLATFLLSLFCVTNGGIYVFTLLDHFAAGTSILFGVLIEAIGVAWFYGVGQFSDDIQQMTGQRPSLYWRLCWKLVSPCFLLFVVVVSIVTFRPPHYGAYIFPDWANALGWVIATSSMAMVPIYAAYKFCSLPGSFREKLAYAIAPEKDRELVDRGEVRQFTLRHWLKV

CC[C@H](C)[C@H](NC(=O)[C@H](CO)NC(=O)[C@H](Cc1ccc(O)cc1)NC(=O)[C@H](Cc1ccc(O)cc1)NC(=O)[C@H](CC(N)=O)NC(=O)CNC(=O)[C@H](CO)NC(=O)[C@H](Cc1ccc(O)cc1)NC(=O)[C@H](CO)NC(=O)[C@H](CO)NC(=O)[C@H](CC(N)=O)NC(=O)COCCOCCNC(=O)CN1CCN(CC(=O)O)CCN(CC(=O)O)CCN(CC(=O)O)CC1)C(=O)N[C@@H](CC(C)C)C(N)=O [copper-64 labelled]
mean uptake (dynamic PET; tamoxifen-induced PDAC mouse model, blood; 0 min, 49 days after tamoxifen): 0 %IA/cc

CC(C)CC(C(=O)N1CC2(CC1C#N)C(=O)Nc1ccccc12)N(C)C(=O)c1cc2c(F)cc(F)c(F)c2[nH]1 (stereo not drawn)
remaining activity (Replicase polyprotein 1ab, main protease (rep, Porcine epidemic diarrhea virus, UniProt P0C6Y4); protease activity, inhibitor; 0.32 µM): 86.2%

CC(C)(C)C(=O)OCOP(=O)(OCOC(=O)C(C)(C)C)C1CCCN(O)C1=O (stereo not drawn)
log GI50 (HOP-62): -6.31 log M

Nc1ccc(/C=C/C(=O)N2CCc3c(oc4c(-c5ccc(F)cc5)cc(-c5ccc(C(=O)N6CCC(F)(F)CC6)cn5)cc34)C2)cn1
remaining binding (SRC (Homo sapiens, UniProt P12931); binding, competition with immobilised ligand; 1 µM): 100%

O=C1NC2(CC2)COc2ncc(F)cc2[C@H]2COCCN2c2ccn3ncc1c3n2
serum hepatic lipase activity (Sprague-Dawley rat, male, serum; oral, 20 mg/kg/day, end of recovery, 4-week subacute toxicity): 3.1 ± 0.7 U/L

CCOCC1C(c2ccc(Cl)c(Cl)c2)CC2CCC1N2C (stereo not drawn)
remaining activity (SLC6A3 (Homo sapiens, UniProt Q01959); dopamine uptake; 1e-05 µM, 0.03333 h, with: [3H]dopamine; baseline: no inhibitor): 109%

Cc1ccc2c(C(C[N+](=O)[O-])c3cccs3)c(-c3ccccc3)[nH]c2c1 (stereo not drawn)
Emax (CNR1 (Homo sapiens, UniProt P21554, I245A); β-arrestin recruitment, agonist, luciferase): 63.8%

CS(C)(=O)=Nc1ccc(-c2ccc(-c3nc4cc(O[C@@H]5CO[C@H]6[C@@H]5OC[C@H]6O)[nH]c4cc3F)cc2)cc1
inhibition (CLK4 (Homo sapiens, UniProt Q9HAZ1); enzyme activity, inhibitor; 10 µM): 6%

COc1ccccc1-c1n[nH]c2nc(NC3CCN(C(=O)Cc4ccc(F)cc4F)CC3)ncc12
relative abundance (bead binding, competition bead pull-down, item: LINJ.05.0350; Leishmania donovani axenic amastigote extract; 10 µM; baseline: vehicle): 1.16

O=C1NC(=O)c2c1c1cc(F)c[n+]3c1c1c2c2cc(O)ccc2[n]1[Ru-4]312([N]=C=S)[S+]3CC[S+]1CC[S+]2CC3 (stereo not drawn)
remaining activity (NEK3 (Homo sapiens, UniProt P51956); enzyme activity; 100 nM, human enzyme, with: 10 µM ATP; baseline: untreated): 95%

CN(C)[C@H]1C[C@@]23CC[C@@]4(O2)C(=CC[C@]2(C)[C@@H](c5ccc6ccncc6c5)CC[C@H]24)C=C3[C@@H](O)[C@@H]1O
inhibition (PIK3CD (Homo sapiens, UniProt O00329); ATP probe labelling, inhibitor, KiNativ profiling; 1 µM): -8.9%

Cc1sc2c(c1C)C(c1ccc(Cl)cc1)=NC(CC(=O)OC(C)(C)C)c1nnc(C)n1-2 (stereo not drawn)
inhibition (SLC6A2 (Homo sapiens, UniProt P23975); ligand displacement, radioligand; 1 µM): -10%

Some of these lines once more:
CN(C)[C@H]1C[C@@]23CC[C@@]4(O2)C(=CC[C@]2(C)[C@@H](c5ccc6ccncc6c5)CC[C@H]24)C=C3[C@@H](O)[C@@H]1O
inhibition (PIK3CD (Homo sapiens, UniProt O00329); ATP probe labelling, inhibitor, KiNativ profiling; 1 µM): -8.9%

Cc1sc2c(c1C)C(c1ccc(Cl)cc1)=NC(CC(=O)OC(C)(C)C)c1nnc(C)n1-2 (stereo not drawn)
inhibition (SLC6A2 (Homo sapiens, UniProt P23975); ligand displacement, radioligand; 1 µM): -10%
